Published values from different studies.
A part holds a random share of what one study measured. Changes are numbered by the printed parent chain.

Set 1
Target: UBE2G2 UBC core domain (UniProt P60604)
Method: yeast two-hybrid
Medium: yeast
Notes: mostly zero background
Reference: not given
Direction: higher = stronger interaction
B1: ARK2C RING domain (UniProt Q6ZSG1); chain EGEESDTDEKCTICLSMLEDGEDVRRLPCMHLFHQLCVDQWLAMSKKCPICRVDIETQLGAD
B2: TRIM69 RING domain (UniProt Q86WT6); chain VIQDITMELHCPLCNDWFRDPLMLSCGHNFCEACIQDFWRLQAKETFCPECKMLCQYNNCTF
B3: TRIM8 RING domain (UniProt Q9BZR9); chain WKNCFEEELICPICLHVFVEPVQLPCKHNFCRGCIGEAWAKDSGLVRCPECNQAYNQKPGLE
B4: IRF2BPL RING domain (UniProt Q9H1B7); chain SPMANSGPLCCTICHERLEDTHFVQCPSVPSHKFCFPCSRESIKAQGATGEVYCPSGEKCPLVGSNVP
Target sequence (chain): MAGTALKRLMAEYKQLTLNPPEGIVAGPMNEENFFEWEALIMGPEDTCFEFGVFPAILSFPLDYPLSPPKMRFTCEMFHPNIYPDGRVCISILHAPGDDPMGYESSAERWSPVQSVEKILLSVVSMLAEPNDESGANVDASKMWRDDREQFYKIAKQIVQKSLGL
Molecule	lacZ reporter activity
FASPPDSNFVCSVCHGVLKRPARLPCSHIFCKKCILRWLARQKTCPCCRKEVKRKKVVH (RNF151 RING domain (UniProt Q2KHN1))	0
KTLSRFGIQPCSICLGDAKDPVCLPCDHVHCLRCLRAWFASEQMICPYCLTALPDEFSPA (RNF213 RING domain (UniProt Q63HN8))	0
B1 (ARK2C RING domain)	11000
B2 (TRIM69 RING domain)	0
B3 (TRIM8 RING domain)	0
FPEHFVKSISCQICEHILADPVETNCKHVFCRVCILRCLKVMGSYCPSCRYPCFPTDLES (RAG1 RING domain (UniProt P15918))	0
EDEVSDNSAECVVCLSDVRDTLILPCRHLCLCNTCADTLRYQANNCPICRLPFRALLQIR (RNF157 RING domain (UniProt Q96PX1))	16200
B4 (IRF2BPL RING domain)	0
VTLSLTLPITCHICLGKVRQPVICINNHVFCSICIDLWLKNNSQCPACRVPITPENPCK (OBI1 RING domain (UniProt Q5W0B1))	0
DDENSDNSNECVVCLSDLRDTLILPCRHLCLCTSCADTLRYQANNCPICRLPFRALLQIR (MGRN1 RING domain (UniProt O60291))	5900
PEELQAMDNVCIICREEMVTGAKRLPCNHIFHTSCLRSWFQRQQTCPTCRMDVLRASLPA (SYVN1 RING domain (UniProt Q86TM6))	0

Set 2
Target: CCNF, cyclin fold, Cln2 fusion (human)
Method: yeast growth competition, sequencing
Medium: yeast
Notes: strong parent motif
Reference: not given
Direction: higher = stronger binding
Starting sequence: PKMYT1 docking peptide (human); SFEPRNLLSLFED
Substitution	normalised enrichment score
L8K	-0.104
N6H	0.174
E12L	0.615
S1W	2.96
D13Q	0.76
L10Q	0.602
L10Y	1.88
S1T	0.701
L8S	-1.09
F11C	-0.676
P4W	0.928

Set 3
Target: ATF5, bZIP domain (human)
Method: DHFR protein complementation
Medium: yeast
Notes: single substitutions, most at no-binding floor
Reference: wild-type JUN-FOS pair
Direction: higher = stronger binding
Starting sequence: JUN, bZIP domain (human); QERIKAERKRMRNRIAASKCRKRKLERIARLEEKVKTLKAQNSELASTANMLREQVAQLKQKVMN; partner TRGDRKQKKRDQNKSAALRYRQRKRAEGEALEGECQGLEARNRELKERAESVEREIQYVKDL
Substitution	binding fitness [natural log]
V35F	-1.57
E33L	-1.25
Q41N	-1.52
A29G	-1.33
V56M	-1.38
N42I	-1.41
S43Q	-1.33
K36S	-1.61
E32Q	-1.56
K36E	-1.56
A49K	-1.57
M51H	-1.48

Set 4
Target: ABI1, truncated, D143A, DHFR fusion (Arabidopsis thaliana)
Method: DHFR PCA, deep sequencing
Medium: yeast
Notes: methotrexate growth selection, single substitutions
With: (+)-ABA 0.032 µM
Reference: wild-type fitted maximum
Direction: higher = stronger binding
Starting sequence: PYL1, truncated, DHFR fusion (Arabidopsis thaliana); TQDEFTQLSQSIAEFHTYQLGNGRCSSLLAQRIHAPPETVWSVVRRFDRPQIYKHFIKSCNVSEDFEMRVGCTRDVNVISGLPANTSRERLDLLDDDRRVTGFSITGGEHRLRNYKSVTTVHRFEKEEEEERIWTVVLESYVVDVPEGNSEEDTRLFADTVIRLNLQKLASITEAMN; partner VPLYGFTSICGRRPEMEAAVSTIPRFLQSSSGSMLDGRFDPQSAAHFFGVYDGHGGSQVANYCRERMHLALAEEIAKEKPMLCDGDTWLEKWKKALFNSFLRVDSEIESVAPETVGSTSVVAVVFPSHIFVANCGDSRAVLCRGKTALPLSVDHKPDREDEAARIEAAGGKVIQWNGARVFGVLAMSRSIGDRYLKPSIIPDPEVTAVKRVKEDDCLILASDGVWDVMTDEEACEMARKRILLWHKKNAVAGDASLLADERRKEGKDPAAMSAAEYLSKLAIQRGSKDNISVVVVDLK
Substitution	relative binding score
N77S	47.6%
M68K	-8.71%
Q10K	40%
E125H	46%
D75I	29.2%
T73V	37.3%
M68W	-0.403%
R111A	2.08%
S171F	-4.17%
H110V	15.9%
R49E	12.1%
F5G	-1.04%
E151P	41.4%
E14C	-1.09%
D144G	2.33%
R132I	22.9%
R88T	42.4%
T101V	35.1%
F157K	3.32%
E131S	48.9%
L112C	-0.508%
F15C	-3.9%

Set 5
Target: Interferon regulatory factor 5, full length, phosphomimetic (IRF5, Homo sapiens, UniProt Q13568-2, residues 1-514, K96S/S451D/S453D/S456D/S462D)
Method: protein-binding microarray
Form: double-stranded DNA, one strand shown
Medium: in vitro
Concentration: 250 nM
Notes: 60-bp whole probe
With: salmon DNA 0.4 mg/ml
Reference: random background probes
Direction: higher = stronger binding
Constant ends, left off below: GCCTAGCAC … GTCTTGATTCGCTTGACGCTGCTG
Oligonucleotide	log fluorescence [z-score]
GAGGGACTGGGTATCGGGACGTGCTAG	0.249
TTAGGTTTCGGGGTTCGGTTAGTGCTA	6.65
CGGCCTCTAGGTTTTCTGAAGTGCTAG	-0.458
GACGATTTCATTCTCGAGACGTGCTAG	1.43
GACGGTTTCGTACTGGGGACGTGCTAG	2.81
GACGAACTGGGGGATCGAGACGTGCTA	-0.00475
TTGGTTTCTGGTTTATTGAGGTGCTAG	4.04
GAAGATATCAGTCTCGAGACGTGCTAG	0.753
GACGGTTTCCTTTGCCTGACGTGCTAG	0.821
GGTCCTCTAGGAATGTAACTGTGCTAG	-0.427
TAAGATTCCAGTTTCGATTAGTGCTAG	9.83
TTAGGTTTCCTTCTCCCTTAGTGCTAG	0.854
GTAGGTTTCCTTTCCCTTTAGTGCTAG	1.65
GACGCTATCGGGTTTCGGGACGTGCTA	4.89
CCATCTCAGCCTCCCCAAGGGTGCTAG	-0.342
CCCATTCCAGGGTTTTATGGAGTGCTA	-0.453
GACGGTATCGGTAACGGGACGTGCTAG	4.49
GACGGATTCGGACTGGGGACGTGCTAG	-0.396
TCATGTTTACAGATGTTACTGTGCTAG	0.359
GACGGTCTCCTTTTACTGACGTGCTAG	0.0369
TTTTGTTGTTTTTTGGTTTCGTGCTAG	4.64
GACGATATCCGTTTCGAGACGTGCTAG	2.6
TCAATTTTCATTAACTGACTGTGCTAG	2.16

Mixed results
Method: cross-linking MS
Molecule	partner	system	setting	quantity	result
TADA1 (Homo sapiens, UniProt Q96BN2)	TAF9B (Homo sapiens, UniProt Q9HBM6)	cell fractions	with: DSSO	cross-linked residues	K108 to K24
RNASEH2A (Homo sapiens, UniProt O75792)	SAFB2 (Homo sapiens, UniProt Q14151)	cell fractions	with: DSSO	cross-linked residues	K247 to S493
CSNK1A1 (Homo sapiens, UniProt P48729)	COL28A1 (Homo sapiens, UniProt Q2UY09)	cell fractions	with: DSSO	cross-linked residues	K225 to K845
MTA1 (Homo sapiens, UniProt Q13330)	RBBP7 (Homo sapiens, UniProt Q16576)		hits only	interaction screen	cross-linked
